Experimental data gathered from unrelated publications.
A part holds a random share of what one study measured. Positions count from the first letter of the parent shown.

Study 1
Target: CCNE2, cyclin fold, Cln2 fusion (human)
Method: yeast growth competition, sequencing
Matrix: yeast
Setting: strong parent motif
Relative to: not given
Reading: higher = stronger binding
Starting sequence: CDKN1B docking peptide (human); PSACRNLFGPVDH
Change | normalised enrichment score
PSYCRNLFGPVDH [A3Y] | 2.24
PSACRNKFGPVDH [L7K] | -0.0446
PSACRNLHGPVDH [F8H] | 0.303
YSACRNLFGPVDH [P1Y] | 1.64
PSACRALFGPVDH [N6A] | 1.04
PSACRPLFGPVDH [N6P] | -0.0713
PSACRNLFYPVDH [G9Y] | 1.22
PSACRNFFGPVDH [L7F] | 0.841
PSACRNLFCPVDH [G9C] | 0.0843
GSACRNLFGPVDH [P1G] | 1.34

Study 2
Target: Histone acetyltransferase KAT6A, winged helix 2, GST fusion (KAT6A, Homo sapiens, UniProt Q92794, residues 85-181)
Method: protein binding microarray
Form: double-stranded DNA, one strand shown
Matrix: in vitro
Tested at: not given
Setting: 8-mer, flanks averaged, mean of 2 arrays, mostly near background
Relative to: not given
Reading: higher = stronger binding
Construct (chain): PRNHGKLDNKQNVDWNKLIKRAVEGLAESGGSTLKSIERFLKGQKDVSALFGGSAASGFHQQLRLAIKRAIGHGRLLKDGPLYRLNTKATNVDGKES
Oligonucleotide | E-score
AGCGTTGC | 0.061
ACTAGAAC | -0.0477
GCCTAGCA | 0.0046
CCCCCCAG | -0.0725
CCAAGTGG | 0.102
ACCAAGAT | -0.0615
CCTTTGGC | -0.000225
AAACGGGA | -0.0919
CAGCTCTC | 0.0901

Study 3
Target: PABPC1L2, full length, GST fusion (mouse, UniProt A0ABA7IW68)
Method: RNAcompete
Form: RNA
Matrix: in vitro
Tested at: 20 nM
Setting: 7-mer, probes averaged, single round
Relative to: mean of 7-mers
Reading: higher = stronger binding
Construct (chain): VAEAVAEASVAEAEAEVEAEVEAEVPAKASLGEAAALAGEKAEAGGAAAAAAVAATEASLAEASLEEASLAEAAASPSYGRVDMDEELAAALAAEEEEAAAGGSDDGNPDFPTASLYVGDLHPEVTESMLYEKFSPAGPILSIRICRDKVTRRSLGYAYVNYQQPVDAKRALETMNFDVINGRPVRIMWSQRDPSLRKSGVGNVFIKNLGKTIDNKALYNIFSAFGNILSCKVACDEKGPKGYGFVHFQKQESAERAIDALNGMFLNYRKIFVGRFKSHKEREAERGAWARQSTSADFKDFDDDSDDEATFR
Oligonucleotide | 7-mer Z-score
UUGCUGC | -0.383
UGCGUCG | -0.4
AGAGGGA | 0.336
CGCAUGU | -0.411
GACGCUA | -0.164
GUAGUAC | -0.146
GCUCUCA | -0.331
UACUGUA | -0.166
GCUGACA | -0.0428
CUCACAA | 0.122

Further values, each from its own experiment
Molecule | target | assay | system | conditions | how to read | quantity | value
PhoQ, residues 284 288 289 292 302 303 NLGVHL | PhoP, residues 12 14 15 18 19 AQALL (Escherichia coli, UniProt P23836) | Sort-seq, refers to: YFP reporter | E. coli | PhoQ-PhoP variant library, with: 10 µM Mg2+ | relative to: high Mg2+ state, higher = stronger signaling | fold induction | 28.6

Excerpt of the above (study 3):
Oligonucleotide | 7-mer Z-score
CGCAUGU | -0.411
GCUCUCA | -0.331
